Measurements pooled from the literature.
Parts stem from different laboratories: compare values within a part only.
Chain of UniProt P07949 (whole entry, unmodified, looked up): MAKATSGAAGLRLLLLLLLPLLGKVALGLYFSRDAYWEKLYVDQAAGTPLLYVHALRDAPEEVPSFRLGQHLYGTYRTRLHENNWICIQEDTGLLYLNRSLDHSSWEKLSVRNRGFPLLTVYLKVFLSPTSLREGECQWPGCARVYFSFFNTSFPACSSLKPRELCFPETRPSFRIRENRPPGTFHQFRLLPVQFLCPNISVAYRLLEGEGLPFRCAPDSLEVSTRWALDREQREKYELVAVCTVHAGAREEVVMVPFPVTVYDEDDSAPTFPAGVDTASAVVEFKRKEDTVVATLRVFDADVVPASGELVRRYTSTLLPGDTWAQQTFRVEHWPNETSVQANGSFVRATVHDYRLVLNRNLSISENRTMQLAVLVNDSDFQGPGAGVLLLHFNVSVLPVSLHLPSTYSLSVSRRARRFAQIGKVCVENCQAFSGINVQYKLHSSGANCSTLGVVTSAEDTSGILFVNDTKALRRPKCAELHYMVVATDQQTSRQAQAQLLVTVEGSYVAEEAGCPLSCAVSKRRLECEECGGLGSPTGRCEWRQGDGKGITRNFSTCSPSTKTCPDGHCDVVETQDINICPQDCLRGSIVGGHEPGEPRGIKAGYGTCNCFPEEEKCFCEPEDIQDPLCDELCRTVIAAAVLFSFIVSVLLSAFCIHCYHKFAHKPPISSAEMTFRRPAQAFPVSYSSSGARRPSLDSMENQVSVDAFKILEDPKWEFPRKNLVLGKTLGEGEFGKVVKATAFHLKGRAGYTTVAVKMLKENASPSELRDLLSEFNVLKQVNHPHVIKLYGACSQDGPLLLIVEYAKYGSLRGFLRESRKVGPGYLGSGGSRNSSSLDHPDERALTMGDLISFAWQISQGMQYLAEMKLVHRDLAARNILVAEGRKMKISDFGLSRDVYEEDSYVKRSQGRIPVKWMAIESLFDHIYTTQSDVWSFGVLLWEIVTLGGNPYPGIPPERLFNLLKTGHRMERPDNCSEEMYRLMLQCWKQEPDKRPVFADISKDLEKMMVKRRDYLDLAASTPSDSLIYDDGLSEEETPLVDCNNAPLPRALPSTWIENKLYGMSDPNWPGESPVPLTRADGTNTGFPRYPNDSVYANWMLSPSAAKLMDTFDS
Chain of UniProt Q9HC98 (whole entry, looked up): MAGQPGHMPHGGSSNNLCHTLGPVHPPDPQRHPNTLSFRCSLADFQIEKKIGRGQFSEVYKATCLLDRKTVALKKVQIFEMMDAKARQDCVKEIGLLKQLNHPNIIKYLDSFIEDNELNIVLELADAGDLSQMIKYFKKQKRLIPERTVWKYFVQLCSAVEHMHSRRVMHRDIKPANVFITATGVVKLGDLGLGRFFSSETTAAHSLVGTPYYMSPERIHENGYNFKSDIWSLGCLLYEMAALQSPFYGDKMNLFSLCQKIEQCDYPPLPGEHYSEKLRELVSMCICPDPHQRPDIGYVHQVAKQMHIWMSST
Chain of UniProt P49137 (whole entry, looked up): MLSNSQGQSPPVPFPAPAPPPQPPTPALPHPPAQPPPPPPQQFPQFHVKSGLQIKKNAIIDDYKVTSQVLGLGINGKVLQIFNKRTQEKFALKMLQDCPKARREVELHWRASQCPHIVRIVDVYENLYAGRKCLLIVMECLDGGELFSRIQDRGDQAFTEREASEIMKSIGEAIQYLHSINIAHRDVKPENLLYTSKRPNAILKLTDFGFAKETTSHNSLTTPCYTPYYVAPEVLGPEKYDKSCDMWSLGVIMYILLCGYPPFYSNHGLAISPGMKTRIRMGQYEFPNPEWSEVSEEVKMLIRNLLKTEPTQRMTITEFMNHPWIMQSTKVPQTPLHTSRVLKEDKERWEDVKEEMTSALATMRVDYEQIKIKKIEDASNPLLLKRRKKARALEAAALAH
Chain of UniProt Q9UL54 (whole entry, looked up): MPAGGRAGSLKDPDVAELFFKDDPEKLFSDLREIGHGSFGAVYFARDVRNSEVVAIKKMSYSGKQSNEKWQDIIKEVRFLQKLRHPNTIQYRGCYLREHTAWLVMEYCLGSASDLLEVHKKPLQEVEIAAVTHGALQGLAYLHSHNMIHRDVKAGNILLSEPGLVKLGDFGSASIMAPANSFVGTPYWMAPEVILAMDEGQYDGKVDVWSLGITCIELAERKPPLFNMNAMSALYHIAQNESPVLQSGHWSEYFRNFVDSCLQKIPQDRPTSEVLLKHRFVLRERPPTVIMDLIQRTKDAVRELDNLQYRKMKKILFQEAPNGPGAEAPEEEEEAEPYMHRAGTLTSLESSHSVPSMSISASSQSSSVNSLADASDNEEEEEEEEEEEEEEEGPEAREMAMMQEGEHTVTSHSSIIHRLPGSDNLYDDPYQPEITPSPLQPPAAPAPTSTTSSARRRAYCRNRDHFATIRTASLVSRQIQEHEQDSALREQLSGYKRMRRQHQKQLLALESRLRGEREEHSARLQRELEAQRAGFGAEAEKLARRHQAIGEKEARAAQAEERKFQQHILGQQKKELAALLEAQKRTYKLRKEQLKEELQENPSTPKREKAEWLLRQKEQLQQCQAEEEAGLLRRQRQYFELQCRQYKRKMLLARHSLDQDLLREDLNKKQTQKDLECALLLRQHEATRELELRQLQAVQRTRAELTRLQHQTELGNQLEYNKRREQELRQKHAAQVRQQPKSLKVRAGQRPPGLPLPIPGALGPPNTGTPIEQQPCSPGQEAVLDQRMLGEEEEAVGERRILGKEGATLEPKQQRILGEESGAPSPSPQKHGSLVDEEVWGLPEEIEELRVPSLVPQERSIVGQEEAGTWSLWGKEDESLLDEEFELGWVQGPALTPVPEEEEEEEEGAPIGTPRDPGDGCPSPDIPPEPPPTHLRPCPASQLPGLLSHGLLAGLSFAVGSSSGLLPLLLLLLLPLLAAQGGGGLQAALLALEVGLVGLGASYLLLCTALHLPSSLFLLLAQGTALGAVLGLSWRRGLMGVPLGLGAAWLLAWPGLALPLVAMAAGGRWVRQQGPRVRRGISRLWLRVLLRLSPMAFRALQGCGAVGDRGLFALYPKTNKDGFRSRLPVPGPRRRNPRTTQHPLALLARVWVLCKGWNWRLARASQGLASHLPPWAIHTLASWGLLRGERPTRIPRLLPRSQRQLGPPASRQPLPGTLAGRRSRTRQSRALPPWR
Chain of UniProt Q9HBY8 (whole entry, looked up): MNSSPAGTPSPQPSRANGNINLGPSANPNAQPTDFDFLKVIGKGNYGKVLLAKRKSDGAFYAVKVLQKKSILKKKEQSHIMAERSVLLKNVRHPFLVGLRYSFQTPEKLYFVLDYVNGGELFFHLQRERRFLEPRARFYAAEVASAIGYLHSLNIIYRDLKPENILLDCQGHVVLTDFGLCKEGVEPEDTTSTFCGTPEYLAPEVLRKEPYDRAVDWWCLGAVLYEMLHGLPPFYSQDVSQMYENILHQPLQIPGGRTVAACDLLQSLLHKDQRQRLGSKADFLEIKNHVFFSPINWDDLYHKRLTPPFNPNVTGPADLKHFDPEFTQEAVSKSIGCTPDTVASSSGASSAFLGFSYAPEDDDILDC
Chain of UniProt Q9Y6M4 (whole entry, looked up): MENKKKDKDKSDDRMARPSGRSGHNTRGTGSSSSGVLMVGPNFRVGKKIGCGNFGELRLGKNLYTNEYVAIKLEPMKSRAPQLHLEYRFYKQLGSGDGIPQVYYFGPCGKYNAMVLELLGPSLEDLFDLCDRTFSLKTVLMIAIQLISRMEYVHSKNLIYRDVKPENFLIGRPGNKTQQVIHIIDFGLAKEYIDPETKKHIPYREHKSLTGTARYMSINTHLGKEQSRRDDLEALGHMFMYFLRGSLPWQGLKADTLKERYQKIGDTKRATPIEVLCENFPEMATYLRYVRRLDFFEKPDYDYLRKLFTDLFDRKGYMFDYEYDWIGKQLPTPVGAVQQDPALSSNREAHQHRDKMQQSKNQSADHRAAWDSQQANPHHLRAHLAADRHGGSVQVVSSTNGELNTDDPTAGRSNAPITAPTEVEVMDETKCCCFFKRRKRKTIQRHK

Sample 1
Cell line: HaCaT
Tested at: 100 µM
Time: 18 h
| SMILES | viability |
| --- | --- |
| CC(NCCC(c1ccccc1)c1ccccc1)c1ccccc1 (centres unmarked) | 14.9% |
| Cc1c(C(=O)Nc2ccc(N3C[C@@H](C)O[C@@H](C)C3)nc2)cccc1-c1ccc(OC(F)(F)F)cc1 | 26% |
| CCN(CC)CCNC(=O)c1cc(Cl)c(N)cc1OC | 94.8% |

Sample 2
SMILES: O=C1NC(=O)C(c2c[nH]c3ccccc23)=C1c1c[nH]c2ccccc12
Effect on: enzyme activity
Mode: inhibitor
Tested at: 0.5 µM
Baseline: control
| target | remaining activity [%] |
| --- | --- |
| MERTK (Homo sapiens, UniProt Q12866) | 86.1 |
| MAP3K14 (Homo sapiens, UniProt Q99558) | 91 |
| NEK6 (Homo sapiens, UniProt Q9HC98) | 101 |
| FRK (Homo sapiens, UniProt P42685) | 88.2 |
| MAPKAPK2 (Homo sapiens, UniProt P49137) | 95.6 |
| RPS6KA2 (Homo sapiens, UniProt Q15349) | 11.5 |
| CSNK1G2 (Homo sapiens, UniProt P78368) | 92 |
| WEE1 (Homo sapiens, UniProt P30291) | 98.1 |
| NEK1 (Homo sapiens, UniProt Q96PY6) | 93.8 |
| MAPK3 (Homo sapiens, UniProt P27361) | 105 |
| MST1R (Homo sapiens, UniProt Q04912) | 93.1 |
| CSNK1G3 (Homo sapiens, UniProt Q9Y6M4) | 89.9 |
| TAOK2 (Homo sapiens, UniProt Q9UL54) | 102 |
| ARAF (Homo sapiens, UniProt P10398) | 155 |

Sample 3
Cell line: mouse MPNST tumor cells
Technique: high-content nuclear imaging
Item: cell number
Tested at: 10 µM
Time: 12 h
Setting: mean of 2 replicates
Baseline: plate mean
Direction: higher = more cells
| Structure (SMILES) | nuclei count [z-score] |
| --- | --- |
| O=c1onc2cnc3ccccc3n12 | 0.922 |
| Cc1ccc(Sc2cncc3sc(C(N)=O)cc23)cc1 | 0.0799 |
| CCn1cc(C(=O)O)c(=O)c2cnc(N3CCCC3)nc21 | 1.89 |
| N#C[C@@H]1CC[C@H](C#N)N1C(=O)CNC1(CO)CCCC1 | 0.565 |
| Oc1c(F)cc(-c2cnccc2-c2ccc(N3CCOCC3)cc2)cc1F | 0.682 |

Sample 4
Species: mouse
Sample: microsomes or S9
Tested at: 2 µM
Time: 0.5 h
| SMILES | remaining compound [%] |
| --- | --- |
| O=C(NC1CCN(Cc2ccc3c(c2)OCO3)CC1)c1cc2ccc3ccccc3c2o1 | 1.77 |
| CC(C)n1c(CNC(=O)c2cc(-c3ccco3)n[nH]2)nc2ccccc21 | 15.8 |
| O=C(Cn1c(=O)n2nc(-c3cccnc3)nc2c2c3c(sc21)CCC3)NCc1ccco1 | 53.9 |
| Cc1cc(Cl)cc2c(=O)[nH]c(-c3cc(Br)nn3-c3ncccc3Cl)nc12 | 36.4 |

Sample 5
SMILES: C[C@H](c1ccc(F)cc1)N(Cc1cccc(C(=O)O)c1)C(=O)c1cnc2ccccc2c1
Effect on: cell-free assay
Technique: competition with immobilised ligand
Tested at: 1 µM
| target | remaining binding |
| --- | --- |
| SGK2 (Homo sapiens, UniProt Q9HBY8) | 93% |
| FLT3 (Homo sapiens, UniProt P36888) | 100% |
| RET (Homo sapiens, UniProt P07949, M918T) | 86% |

A few entries again (sample 2):
| target | remaining activity [%] |
| --- | --- |
| MAP3K14 (Homo sapiens, UniProt Q99558) | 91 |
| MST1R (Homo sapiens, UniProt Q04912) | 93.1 |
| TAOK2 (Homo sapiens, UniProt Q9UL54) | 102 |
